Experimental data from different studies.
A part holds a random share of what one study measured.

Study 1
Target: Interferon regulatory factor 3, full length, phosphomimetic (IRF3, Homo sapiens, UniProt Q14653, residues 1-427, S386D/S396D/S398D/S402D/T404D/S405D)
Method: protein-binding microarray
Molecule type: double-stranded DNA, one strand shown
Medium: in vitro
Concentration: 2540 nM top
Notes: 60-bp whole probe
Together with: salmon DNA 0.4 mg/ml
Relative to: random background probes
Reading: higher = stronger binding
Measurement: fitted relative affinity
Constant ends, left off below: GCCTAGCAC … GTCTTGATTCGCTTGACGCTGCTG
Residues (chain): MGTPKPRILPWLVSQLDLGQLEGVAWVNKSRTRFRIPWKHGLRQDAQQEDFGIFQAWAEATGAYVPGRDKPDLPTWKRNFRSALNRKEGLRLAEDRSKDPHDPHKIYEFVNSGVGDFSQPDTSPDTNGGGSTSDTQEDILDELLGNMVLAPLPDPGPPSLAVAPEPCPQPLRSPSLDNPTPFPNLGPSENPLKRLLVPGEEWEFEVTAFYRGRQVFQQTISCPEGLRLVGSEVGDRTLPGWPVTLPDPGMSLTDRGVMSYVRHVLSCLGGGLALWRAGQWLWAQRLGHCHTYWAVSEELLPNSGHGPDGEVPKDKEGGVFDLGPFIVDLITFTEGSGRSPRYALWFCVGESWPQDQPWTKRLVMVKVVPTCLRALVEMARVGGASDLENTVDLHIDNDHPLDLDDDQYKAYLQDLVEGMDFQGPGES
TTAGGTTTCGACACTGGGATAGTGCTA: 2.75 z-score
TTCGGACTGGGACTGGGTTAGTGCTAG: -0.76 z-score
TTAGGACTGGGTTTCGGGTAGTGCTAG: 0.889 z-score
TGCACTCTTTACATGGGTTTGTGCTAG: 0.391 z-score
GACGATTTCGGGACTGGAGATGTGCTA: 1.87 z-score
GACGGTTTCGGTTTCGGCACGTGCTAG: 10.6 z-score
GACGGACTGCTACTGCTGGCGTGCTAG: -0.736 z-score
TTAGGTATCCTGTTCCTTTAGTGCTAG: 2.2 z-score
TTAGGTCTCGGAATGGGTTAGTGCTAG: 0.288 z-score
TTAGGTTTAGGGACTGGGTTAGTGCTA: -0.582 z-score
TTAGGTTTCGGTTCAGGTTAGTGCTAG: 8.89 z-score
TTAGATTTCGGGTTTCTATTAGTGCTA: 2.65 z-score
TCACATATTTATCTGCAACTGTGCTAG: 0.459 z-score
TTAGATCTCAGACTGGATTAGTGCTAG: 0.0878 z-score
TTAAATCTCAGACTGGATTAGTGCTAG: 0.0416 z-score
GACGATATCAGACTGGAGTCGTGCTAG: 0.417 z-score
GACGATTCCAGTCTCGAGACGTGCTAG: 1.51 z-score
TTAGATCTCAGTTTCGAATAGTGCTAG: 2.91 z-score
TTATGACTGGGTCTCGGTTAGTGCTAG: -0.46 z-score

Study 2
Target: Ras GTPase-activating protein-binding protein 1, full length (G3BP1, Homo sapiens, UniProt Q13283)
Sequence of UniProt Q13283 (whole entry, looked up): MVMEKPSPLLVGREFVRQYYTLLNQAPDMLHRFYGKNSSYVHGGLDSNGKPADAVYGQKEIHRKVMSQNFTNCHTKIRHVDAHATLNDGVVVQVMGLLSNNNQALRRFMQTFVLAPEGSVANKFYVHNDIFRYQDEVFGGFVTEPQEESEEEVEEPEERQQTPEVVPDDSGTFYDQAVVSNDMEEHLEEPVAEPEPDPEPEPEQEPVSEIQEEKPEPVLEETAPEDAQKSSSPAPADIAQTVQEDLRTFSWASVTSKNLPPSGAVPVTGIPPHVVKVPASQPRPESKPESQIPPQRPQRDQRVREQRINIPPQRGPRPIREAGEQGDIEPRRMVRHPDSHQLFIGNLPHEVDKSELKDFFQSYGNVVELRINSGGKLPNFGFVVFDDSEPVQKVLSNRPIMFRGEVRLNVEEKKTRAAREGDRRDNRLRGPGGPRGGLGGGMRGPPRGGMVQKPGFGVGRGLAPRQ
Method: RNA Bind-n-Seq
Molecule type: RNA
Medium: in vitro
Concentration: 200 nM
Notes: whole 134-nt RNA, ends assumed
Together with: 150 mM LiCl
Relative to: input library
Reading: higher = stronger binding
Measurement: log2 enrichment
Library: 7-deaza-guanosine replaces G
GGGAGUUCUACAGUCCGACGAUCUGUGCUACACAUCGUAUGUACCGAAUCGGGGUUUUUUUGGGGUUUUUUUGGGGAAAAAGGGGAAAGUAUUAUGUUACGCCGUUCGGAUCUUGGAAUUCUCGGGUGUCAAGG: 0.838
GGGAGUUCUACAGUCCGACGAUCUCCUCAAGUCCUGUGCUACACAUCGUAUGUACCGAAUCGGGAGGGGAGGAGGAAAGUAUUAUGUUACGCCGUUCGGAUCUGCACUUCCAGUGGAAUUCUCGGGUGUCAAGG: 0.067
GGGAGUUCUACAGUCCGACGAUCCCUGUGCUACACAUCGUAUGUACCGAAUCGGGGAAAAAAGGAAAAAAGGGAAAAAAGGGGAAAGUAUUAUGUUACGCCGUUCGGAUCUGCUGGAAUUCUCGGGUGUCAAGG: 0.453
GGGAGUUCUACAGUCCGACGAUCCAAGUCCUGUGCUACACAUCGUAUGUACCGAAUCGGGGAGGGGUGGGGAAAGGGGAAAGUAUUAUGUUACGCCGUUCGGAUCUGCACUUCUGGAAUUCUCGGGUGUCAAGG: 0.122
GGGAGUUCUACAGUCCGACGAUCUCCUGUGCUACACAUCGUAUGUACCGAAUCGGGGUUUUUUUGGGGAAAGGGGUUUGGGGAAAGUAUUAUGUUACGCCGUUCGGAUCUGCAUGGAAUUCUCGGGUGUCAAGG: -0.331
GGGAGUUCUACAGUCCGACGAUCAGUCCUGUGCUACACAUCGUAUGUACCGAAUCGGCCCCCCGGCCCCCCGGCCCCCCGGAAAGUAUUAUGUUACGCCGUUCGGAUCUGCACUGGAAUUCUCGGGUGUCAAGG: 0.253
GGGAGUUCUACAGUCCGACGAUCCAAGUCCUGUGCUACACAUCGUAUGUACCGAAUCGGGGCCGGGGCCGGGGCCGGGGAAAGUAUUAUGUUACGCCGUUCGGAUCUGCACUUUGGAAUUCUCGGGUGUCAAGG: -0.285
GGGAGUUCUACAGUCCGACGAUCCCUGUGCUACACAUCGUAUGUACCGAAUCAAACCCCCCCAAACCCCCCCAAACCCCCAAAAAAGUAUUAUGUUACGCCGUUCGGAUCUGCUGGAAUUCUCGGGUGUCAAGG: 0.297

Study 3
Target: Phosphate system positive regulatory protein PHO4, full length, GST-tagged (PHO4, Saccharomyces cerevisiae, UniProt P07270, residues 1-312)
Method: competition protein-binding microarray
Molecule type: double-stranded DNA, one strand shown
Medium: in vitro
Concentration: 2 µM
Notes: whole 60-bp probe, lowest competitor level
Together with: Cbf1 competitor, 0.05 µM
Reading: higher = stronger binding
Measurement: fluorescence intensity
Target sequence (chain): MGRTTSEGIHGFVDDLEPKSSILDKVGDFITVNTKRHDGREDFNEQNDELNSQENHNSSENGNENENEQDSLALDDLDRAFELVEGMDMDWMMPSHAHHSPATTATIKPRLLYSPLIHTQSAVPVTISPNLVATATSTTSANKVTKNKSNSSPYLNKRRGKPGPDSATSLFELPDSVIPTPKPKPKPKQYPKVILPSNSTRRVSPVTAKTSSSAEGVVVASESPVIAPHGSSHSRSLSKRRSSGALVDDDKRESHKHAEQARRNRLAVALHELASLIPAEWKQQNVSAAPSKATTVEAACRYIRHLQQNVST
TCTGGATATTCACCACACCTGATTGGGAAGACTCATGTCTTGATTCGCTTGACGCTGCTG: 4920 a.u.
ACCTCAGGGTTTGTGTCTGTGATGGGTTACTCAGCCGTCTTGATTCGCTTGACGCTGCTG: 3790 a.u.
TTACCTTGGCGCCATCACGTGGCAAAATGGAAGCAAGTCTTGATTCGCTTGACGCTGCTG: 18500 a.u.
CTTTCCCGATCTTTTCACGTGAGATTAGCACATTTGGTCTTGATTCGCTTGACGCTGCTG: 11100 a.u.
AAGAGACAAAAGGAACACGTGAAATAAGAAAGAAAAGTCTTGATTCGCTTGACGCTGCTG: 14200 a.u.
AAATTACTAAGTTGAATGGTGGGTGACGCCGTATGAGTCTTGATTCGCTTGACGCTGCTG: 4170 a.u.
ACATTATGCATAGCTTACCTGATCCAAAAGTATGTAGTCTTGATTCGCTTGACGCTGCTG: 3860 a.u.
GCATACACATACACATTCGTGCAAACATTCATTTATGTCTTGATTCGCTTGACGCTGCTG: 8090 a.u.
TCCATTCTCTACGGCCACGCTGAAACACGAATCATCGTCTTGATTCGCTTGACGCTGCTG: 8550 a.u.
GGCGTAGACTTGAGAAACATGACAACCACCAGGGACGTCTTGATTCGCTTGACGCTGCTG: 4550 a.u.
GTCTTGTCTCATTGTCACCTTACTTTCCCCACTTCAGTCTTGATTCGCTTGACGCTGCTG: 4120 a.u.
CTGTTACTTACACTGAACACGCCAAGAGAAAGACTGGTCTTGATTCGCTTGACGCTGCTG: 6440 a.u.
CGTCACTAGTACTATCACCTGAAAACATGCTTCCAAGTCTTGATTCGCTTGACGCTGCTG: 5900 a.u.
CGTCCTAGTGATTGTCACTGCACTTCCATGAGGAAGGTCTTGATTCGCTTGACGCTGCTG: 4600 a.u.
GTCTTGTCTCATTGTCACTTAACTTTCCCCACTTCAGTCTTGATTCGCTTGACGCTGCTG: 3960 a.u.
CTTCTGTAAATTTGACTCGTGGGTGGACGCGCCCCGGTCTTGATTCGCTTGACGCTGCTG: 9480 a.u.
AAAGCGGTAATTTGGTCAGTGGGTGCAGATATCTATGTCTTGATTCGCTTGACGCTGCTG: 4390 a.u.
CGGGGTTAAGTTTGGCTTGTGGGTGGCTTGCAGCAGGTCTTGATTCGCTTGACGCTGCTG: 5320 a.u.
GTTTAGTTTTCCAATCACGATACTGTTTGGCCATACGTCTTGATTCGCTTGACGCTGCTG: 5230 a.u.

Study 4
Target: RNA binding protein fox-1 homolog 2, RRM domain, GST-SBP tag (RBFOX2, Homo sapiens, UniProt O43251-10, residues 100-194)
Method: RNA Bind-n-Seq
Molecule type: RNA
Medium: in vitro
Concentration: 365 nM
Notes: natural RNA segment, single round, ends assumed
Relative to: no-protein control
Reading: higher = stronger binding
Measurement: RBNS enrichment (R)
Residues (chain): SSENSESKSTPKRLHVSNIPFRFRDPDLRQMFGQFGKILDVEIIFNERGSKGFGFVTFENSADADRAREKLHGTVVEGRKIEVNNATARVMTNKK
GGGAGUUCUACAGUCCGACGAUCUCUCAACAAAAGGUAUAUGCCUUCAGGAAUGAUAUAAUCUGUCCCAUUUUCGAGGCUCCUUAUAAGGACAUUUCCAUGUAUGUCCUUACAUUUCUGAAAGCUUUCAAUCUUGGAAUUCUCGGGUGCCAA: 0.231
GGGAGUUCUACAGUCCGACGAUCCUGUCUGAUGGGAGUAUAAAUUGGACAGUAAGGUUUUGUCUUAAUAAAAUGAAAUUUGUUUCUCAUGAUAUGAAUCUUGCAGGUAAGAUGUAGGGUUUAUUGAAAAUGUGUGGAAUUCUCGGGUGCCAA: 0.351
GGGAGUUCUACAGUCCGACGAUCGGGGUAAUUGUCUCUUGGUGGGCCCAGUUAGUGGGCCUUCCUGAGUGUGUGUAUGCGGUCUGUAACUAUUGCCAUAUAAAUAAAAAAUCCUGUUGCACUAGUGUCCUGCCUGGAAUUCUCGGGUGCCAA: 0.699
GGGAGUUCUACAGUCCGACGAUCUCCCCAGUAAGUCUGAGUGGUUCCUUCAAGCUGGGUGUCUUUCCAGCCUUUGCCAGUCUAGCCCCAGCAGGGCACCGUGUAUGAAUGCAGUUUGGUGCUGUUUUAGAGUAUGGAAUUCUCGGGUGCCAA: 1.11
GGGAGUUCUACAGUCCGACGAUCUGAAUGUGUAUAGGUCAGAGGUCUUCGUGUUCACAUUUUAAAAUUAGGUAAAUGACCUCAUCUUUCAAGCUUGAAUUCAUUUUUAAUUUUAAUUUUAUUUUAUACAAUGUUGGAAUUCUCGGGUGCCAA: 2.92
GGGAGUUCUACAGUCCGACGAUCGGCUUCUCGGGAGGCCAGCCUCUACCAUGGCCGCCUGUUUUGCCUCAGACCAAACUAAGUGCUUCCAGAUCCUUUCGGUGCAAUUUCAGAGCUGUGCCAGAUGCUAGACAUGGAAUUCUCGGGUGCCAA: 0.414
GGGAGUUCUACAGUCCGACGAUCCAGAGCUGGAAAGCUCAUUUCUGGAAUGUUCUAUUUGAGAAUUGCCAUUUCUGGGGUUUGUCUGUUCUAUCUCCUGCCUACCAGUCGGUAUCUUCAGCUGUUUCUUCUAUUGGAAUUCUCGGGUGCCAA: 0.383
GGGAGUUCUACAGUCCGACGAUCGCACAGGGCAGUUAGCCAGCUCAAGUUCUUUUUCAGAGAAAGGGACUUGGCCAGUGGUUUAAGUACCUGCCCCUUCACCUCUCAGACGAGGCAGCUGACGAGGCAGCUGGUGGAAUUCUCGGGUGCCAA: 0.361

A few entries again (study 3):
CGGGGTTAAGTTTGGCTTGTGGGTGGCTTGCAGCAGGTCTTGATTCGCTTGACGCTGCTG: 5320 a.u.
CGTCCTAGTGATTGTCACTGCACTTCCATGAGGAAGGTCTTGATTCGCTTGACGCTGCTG: 4600 a.u.
CGTCACTAGTACTATCACCTGAAAACATGCTTCCAAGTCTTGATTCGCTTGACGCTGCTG: 5900 a.u.
TCTGGATATTCACCACACCTGATTGGGAAGACTCATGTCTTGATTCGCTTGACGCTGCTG: 4920 a.u.
TTACCTTGGCGCCATCACGTGGCAAAATGGAAGCAAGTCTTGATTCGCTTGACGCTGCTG: 18500 a.u.
AAGAGACAAAAGGAACACGTGAAATAAGAAAGAAAAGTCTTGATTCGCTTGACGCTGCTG: 14200 a.u.
AAAGCGGTAATTTGGTCAGTGGGTGCAGATATCTATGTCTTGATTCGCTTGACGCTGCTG: 4390 a.u.
GTCTTGTCTCATTGTCACTTAACTTTCCCCACTTCAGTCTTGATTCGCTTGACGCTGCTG: 3960 a.u.
